Measurements pooled from the literature.
Protocols differ between the studies behind these lines. Several values in a cell are separate wells, animals, samples, runs or records. ± marks the error that the study gave.

The activity score of C[C@@]12C(=O)OC(=O)[C@]1(C)[C@H]1CC[C@@H]2O1 is reported as 5.1 (human iPSC-derived cardiomyocytes; MyBP-C/MYH ratio, plate-normalised SD score; concentration not given, primary screen; direction not given).
CCCCc1nc(Cl)c(CO)n1Cc1ccc(-c2ccccc2-c2nn[nH]n2)cc1: “log2 fold change” 1.52 (human PBMC; RNA-seq, measured: SH3PXD2B mRNA; 10 µg/mL, 24 h; baseline: untreated control).
CCCCCCCCCCCCCCCCCCO: ISG expression “no effect” (HepAD38; measured: ISG15, OAS1, APOBEC3G; concentration not given, added: IFN-α 200 IU).
For CN(C)CCCOc1cc(NC(=O)c2cc(Cl)cc(C(=O)Nc3cc(OCCCN(C)C)c4ccccc4n3)n2)nc2ccccc12, the selectivity ratio was 2 (U2OS; cell viability, CellTiter-Glo; 72 h; baseline: IC50 U2OS over WI-38).
The activity score of CCCCC(CC)COC(=O)c1ccccc1O (stereo not shown) is reported as 4.4 (human iPSC-derived cardiomyocytes; MyBP-C/MYH ratio, plate-normalised SD score; concentration not given, primary screen; direction not given).
Under “number of unchanged genes”, Cn1cc(Nc2nccc(-c3ccc4c(c3)CN(C3COC3)CC[C@H]4NC(=O)c3cn(C(C)(C)C)nn3)n2)cn1 is recorded as 79 (human B cells; 100 nM, 64 h, stimulation-upregulated genes, added: CpG ODN2006).
For CC(C)(O)c1coc(S(=O)(=O)NC(=O)Nc2c3c(cc4c2CCC4)CCC3)c1, the cell lysis was 27.9% and 27.3% (THP-1 cells, LPS-primed; pyroptosis, LDH release; 25 µM, LPS 1 µg/mL, 4 h, added: nigericin 5 µM, 2 h).
With Fc1cccc(F)c1-c1cnc(Cl)n1-c1ccc(OC(F)(F)F)cc1 the fold increase was 2.15 (QBI293; ELISA, measured: acetylated alpha-tubulin; 10 µM; baseline: untreated).
The growth percent of CN1CCN(c2ccc3[nH]c(-c4ccc5[nH]c(-c6ccc(C(F)(F)F)cc6)nc5c4)nc3c2)CC1 is reported as 43.8% (M14; SRB; 10 µM, 48 h).
With Cc1cc(C)n(-c2nc(-c3ccc(Cl)cc3)c3c(NC(=O)c4ccccc4)nnc-3[nH]2)n1 the cell growth was 68.2% (M14; SRB; 10 µM, NCI60 single-dose screen; baseline: untreated).
COc1cccc2c1C(=O)c1c(O)c3c(c(O)c1C2=O)C[C@@](O)(C(=O)CO)C[C@@H]3O[C@H]1C[C@H](N)[C@H](O)[C@H](C)O1 gave a maximal cytotoxicity of 96.1% (HME1; WST-1; concentration not given, 72 h, highest tested concentration).
For OO, “total actin filament intensity” read “increased” (U2OS; 4 mM, 15 min, added: 1.2 M sorbitol; baseline: control).
The EC50 of COc1cnc2cccc(N3CCc4c(cc(Cn5ccnc5C)cc4-c4cn(C)nc4C(F)(F)F)C3=O)c2c1 is reported as > 30 µM (HH; cell growth, inhibitor; 120 h).
With COc1cc(/C=C/c2ccc(O)cc2)cc(OC)c1 the MyBP-C level was 0.7% (MYBPC3 iPSC cardiomyocytes; plate-normalised; concentration not given, 24 h, hit retest).
Under “mRNA level, LS mean”, c1ccc2[nH]ccc2c1 is recorded as 2.06 counts per million (HCT-8; RNA-seq, measured: EGR2; concentration not given).
With C/C=C/c1ccc(OCC(=O)OCC(=O)NC2CC2)c(OC)c1 the maximum efficacy was 63% (C127 LDR GFP reporter cells; silenced GFP reporter induction, activator, high-content imaging; independent samples, two-run mean).
With O=C(/C=C/C=C/C=C/C1CCCCC1)NC1=C[C@@](O)(/C=C/C=C/C=C/C(=O)NC2=C(O)CCC2=O)[C@@H]2O[C@@H]2C1=O the GI50 was 25.2 µM (mfe319; cell growth, inhibitor, CellTiter-Glo luminescence; 78 h; baseline: day 0 cell count).
CC/C(=N\NC(=O)NCc1cccc(O)c1)c1ccc(O)c(C)c1O: “TAZ protein level” 1.29 ± 0.14 (SK-OV-3; Western blot; 2D culture; 10 µM, 1 h, unit not given; baseline: β-actin).
The ΔPSI of Clc1nc(NCc2ccco2)c2[nH]cnc2n1 is reported as -0.325 (FD iPSC-derived cardiomyocytes; alternative splicing, RNA-seq, measured: CRYZ exon chr1(-):74707102-74707204; unit not given; baseline: DMSO minus compound).
With CCn1cc(-c2cc(Cn3ccnc3)cc3c2CCN([C@H](c2cc(OC)ccn2)C2CC2)C3=O)c(C(F)(F)F)n1 the EC50 was > 30 µM (HH; cell growth, inhibitor; 120 h).
CCN(CC)c1ccc2c(c1)oc(=O)c1c(Cl)cc(=O)oc12 has an efficacy of 85% (C127 LDR GFP reporter cells; silenced GFP reporter induction, activator, high-content imaging; retest, two-run mean).
C=CC1=C(C)c2cc3[n-]c(cc4nc(cc5[n-]c(cc1n2)c(C)c5C=C)C(C)=C4CCC(=O)O)c(CCC(=O)O)c3C.[Zn+2] gave a fold change of 3.15 (SH-SY5Y; RNA-seq, measured: CMKLR1 mRNA; 5 µM, 5 h; baseline: untreated cells).
For CC(=O)OCC(=O)[C@@]1(OC(C)=O)[C@@H](C)C[C@H]2[C@@H]3C[C@H](F)C4=CC(=O)C=C[C@]4(C)[C@@]3(F)[C@@H](O)C[C@@]21C, the activity score was 3.1 (human iPSC-derived cardiomyocytes; MyBP-C/MYH ratio, plate-normalised SD score; concentration not given, primary screen; direction not given).
CCOc1ccc(NC(=O)c2nc(S(=O)(=O)Cc3ccccc3F)ncc2Cl)cc1 has an efficacy of 46% (C127 LDR GFP reporter cells; silenced GFP reporter induction, activator, high-content imaging; retest, two-run mean).
Under “fold change in expression”, Cn1cc(-c2ccc(-c3cncc(Cl)c3N3CCC4(CCNC4=O)CC3)cc2)cn1 is recorded as -4.85 (COLO 205; microarray, measured: PLA2G2A; concentration not given, 2 h, gene set PLA2(hGIIA); baseline: untreated cells).
For NCCCOc1cc(NC(=O)c2cc(Cl)cc(C(=O)Nc3cc(OCCCN)c4ccccc4n3)n2)nc2ccccc12, the selectivity ratio was 2 (U2OS; cell viability, CellTiter-Glo; 72 h; baseline: IC50 U2OS over WI-38).
For CCc1cnc(N2CCC(c3nc(COc4ccc(-n5cnnn5)cc4)cs3)CC2)nc1, “normalized enrichment score” read 2.08 (HEK-293T; RNA-seq GSEA, measured: Hallmark cholesterol homeostasis; concentration not given; direction not given).
The maximum efficacy of CCOn1c(=O)c[n+]([O-])c2ccccc21 is reported as 14% (C127 LDR GFP reporter cells; silenced GFP reporter induction, activator, high-content imaging; independent samples, two-run mean).
The activity score of CC(C)=CCc1c2c(c3occ(-c4ccc(O)c(O)c4)c(=O)c3c1O)C=CC(C)(C)O2 is reported as 9.4 (human iPSC-derived cardiomyocytes; MyBP-C/MYH ratio, plate-normalised SD score; concentration not given, primary screen; direction not given).
Clc1ccc(C2(c3ccc(-c4cn[nH]c4)cc3)CCNCC2)cc1 gave a Mcl-1 MFI of 1160 a.u. (primary CLL cells; flow cytometry; human; 10 µM, 24 h; baseline: DMSO, higher = more protein).
O=C(C[C@@H](C(F)F)n1ccc(F)n1)N1CCC(O)(Cn2cnc3c(cnn3-c3ccc(F)cc3)c2=O)CC1 — result for “S phase cells”: 15.2% (CHP-212 parental; PI flow cytometry; 1 µM, 24 h).
For CC(=O)N(CC(O)CO)c1c(I)c(C(=O)NCCO)c(I)c(C(=O)NCC(O)CO)c1I (stereo not shown), the activity score was -3.1 (human iPSC-derived cardiomyocytes; MyBP-C/MYH ratio, plate-normalised SD score; concentration not given, primary screen; direction not given).
Under “log2 fold change”, Cc1cc(Nc2ncc(Cl)c(Nc3ccccc3S(=O)(=O)C(C)C)n2)c(OC(C)C)cc1C1CCNCC1 is recorded as -3.14 (CLB-BAR; phosphoproteomics LC-MS/MS, measured: TJAP1 phosphorylation; 200 nM, 60 min; baseline: untreated).
O=C(Nc1nnc2n3c(nc(-c4ccc(Cl)cc4)c1-2)SCC3=O)c1ccccc1: “mean growth percent” 97.4% (NCI60 cell panel; SRB; 10 µM).
For CSc1cc(Oc2ccnc3[nH]c(=O)cnc23)ccc1NC(=O)Nc1cc(C(C)(C)C)nn1-c1ccccc1, “phospho-Ser73 c-Jun to total ratio” read 1.09 (patient-derived B cell clone line; reverse phase protein array; human; 1 µM, 4 h; baseline: DMSO).
CC(C)NCC(O)c1ccc(O)c(O)c1 (stereo not shown) gave a sarcomere length of 1.8 µm (mouse ventricular cardiomyocytes; dose not given, 0.339 s).
COc1cc2nc(=S)n3[nH]c(CCn4nc(C)cc4C)nc3c2cc1OC gave an efficacy of 111% (C127 LDR GFP reporter cells; silenced GFP reporter induction, activator, high-content imaging; retest, two-run mean).
For Cc1cccc(-c2[nH]c(CNc3ccccc3F)nc2-c2ccc3ncnn3c2)n1, the viability was 21% (MM1.S pomalidomide-resistant; XTT; 3 µM; baseline: untreated).
For CCCc1cc(=O)nc(SCC(=O)Nc2ccc(F)cc2)[nH]1, the inhibition was 29 ± 4% (cells, COS-1, expressing proMMP-9; cell migration, 2D collagen dot migration; 50 µM, 18 h).
For COc1ccc(-n2nc(C(C)=O)s/c2=N\N=C(/C)c2ccc(NC(=O)c3ccc(Cl)cc3)cc2)cc1, the toxicity was 16% (HepG2; 0.078 µM).
With COc1ccc(Nc2nc3c(S(=O)(=O)c4ccccc4)nnn3c3ccc(Cl)cc23)cc1 the maximum efficacy was 16% (C127 LDR GFP reporter cells; silenced GFP reporter induction, activator, high-content imaging; independent samples, two-run mean).
CCC[C@@H]1C[C@@H](C(=O)N[C@@H]([C@H]2O[C@H](SC)[C@H](O)[C@@H](O)[C@H]2O)[C@@H](C)O)N(C)C1 has an activity score of -5.5 (human iPSC-derived cardiomyocytes; MyBP-C/MYH ratio, plate-normalised SD score; concentration not given, primary screen; direction not given).
CCn1cc(-c2cc(Cn3ccoc3=N)cc3c2CCN([C@@H](C)c2cc(OC)ccn2)C3=O)c(C(F)(F)F)n1 gave an EC50 of 0.0295 µM (PECAPJ15; cell growth; 120 h).
CCCc1cc(=O)nc(SCC(=O)Nc2nc3ccccc3[nH]2)[nH]1 has an inhibition of 61 ± 2% (cells, COS-1, expressing proMMP-9; cell migration, 2D collagen dot migration; 50 µM, 18 h).
Nc1cccc2c1C(=O)N(C1CCC(=O)NC1=O)C2=O (stereo not shown) gave a viability of 22% (MM1.S; XTT; 1.8 µM; baseline: untreated).
Cn1c(Nc2nc3ccc(C(F)(F)F)cc3s2)nc2cc(C(=O)NCCOCCO)ccc21 gave a fold change of 4.52 (SH-SY5Y; RNA-seq, measured: CEBPD mRNA; 5 µM, 5 h; baseline: untreated cells).
With COc1cc(/C=C/C(=O)N2CCC=CC2=O)cc(OC)c1OC the mRNA expression was 96.9 ± 15.3% (MDA-MB-468; qRT-PCR, measured: MnSOD; 30 µM, 6 h; baseline: time zero).
With COc1cc(C(=O)NCCCCCC(=O)O)cc(OC)c1OC the activity score was 3.8 (human iPSC-derived cardiomyocytes; MyBP-C/MYH ratio, plate-normalised SD score; concentration not given, primary screen; direction not given).
For CC[C@H](C)N(CC(=O)N(CC(=O)N(CC(=O)N(CC(=O)N(CC(=O)N(CC(=O)N(CC(N)=O)[C@@H](C)c1ccccc1)[C@@H](C)c1ccccc1)[C@@H](C)CC)[C@@H](C)c1ccccc1)[C@@H](C)c1ccccc1)[C@@H](C)CC)C(=O)CNCCCCN, IL-6 release read “decreased” (THP-1 macrophages; ELISA; 10 µM, 72 h, added: LPS 2 ng/mL).

Excerpt of the above:
For CC(=O)OCC(=O)[C@@]1(OC(C)=O)[C@@H](C)C[C@H]2[C@@H]3C[C@H](F)C4=CC(=O)C=C[C@]4(C)[C@@]3(F)[C@@H](O)C[C@@]21C, the activity score was 3.1 (human iPSC-derived cardiomyocytes; MyBP-C/MYH ratio, plate-normalised SD score; concentration not given, primary screen; direction not given).
For CC(C)(O)c1coc(S(=O)(=O)NC(=O)Nc2c3c(cc4c2CCC4)CCC3)c1, the cell lysis was 27.9% and 27.3% (THP-1 cells, LPS-primed; pyroptosis, LDH release; 25 µM, LPS 1 µg/mL, 4 h, added: nigericin 5 µM, 2 h).
The EC50 of COc1cnc2cccc(N3CCc4c(cc(Cn5ccnc5C)cc4-c4cn(C)nc4C(F)(F)F)C3=O)c2c1 is reported as > 30 µM (HH; cell growth, inhibitor; 120 h).
O=C(Nc1nnc2n3c(nc(-c4ccc(Cl)cc4)c1-2)SCC3=O)c1ccccc1: “mean growth percent” 97.4% (NCI60 cell panel; SRB; 10 µM).
Clc1ccc(C2(c3ccc(-c4cn[nH]c4)cc3)CCNCC2)cc1 gave a Mcl-1 MFI of 1160 a.u. (primary CLL cells; flow cytometry; human; 10 µM, 24 h; baseline: DMSO, higher = more protein).
O=C(C[C@@H](C(F)F)n1ccc(F)n1)N1CCC(O)(Cn2cnc3c(cnn3-c3ccc(F)cc3)c2=O)CC1 — result for “S phase cells”: 15.2% (CHP-212 parental; PI flow cytometry; 1 µM, 24 h).
